Published values gathered from unrelated publications.
Every numbered part comes from another study and shows a few of its results, in no order.
Chain of UniProt Q8IVW4 (whole entry, looked up): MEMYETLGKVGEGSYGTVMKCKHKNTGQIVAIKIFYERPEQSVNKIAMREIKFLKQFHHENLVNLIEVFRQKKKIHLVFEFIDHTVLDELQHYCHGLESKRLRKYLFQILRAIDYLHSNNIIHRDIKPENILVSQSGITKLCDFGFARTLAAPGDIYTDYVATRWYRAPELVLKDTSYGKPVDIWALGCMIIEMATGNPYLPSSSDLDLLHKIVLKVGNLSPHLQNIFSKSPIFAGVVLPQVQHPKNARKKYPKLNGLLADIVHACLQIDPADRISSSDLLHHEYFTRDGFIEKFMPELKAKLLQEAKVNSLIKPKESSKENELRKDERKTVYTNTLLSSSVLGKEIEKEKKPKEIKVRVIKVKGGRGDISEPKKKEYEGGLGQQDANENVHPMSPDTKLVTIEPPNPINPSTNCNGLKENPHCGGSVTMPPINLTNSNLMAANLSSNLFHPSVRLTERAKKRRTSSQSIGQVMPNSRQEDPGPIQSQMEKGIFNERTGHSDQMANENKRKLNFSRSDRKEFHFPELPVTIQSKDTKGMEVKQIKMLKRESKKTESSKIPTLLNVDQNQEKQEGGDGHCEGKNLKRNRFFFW
Chain of UniProt O94768 (whole entry, looked up): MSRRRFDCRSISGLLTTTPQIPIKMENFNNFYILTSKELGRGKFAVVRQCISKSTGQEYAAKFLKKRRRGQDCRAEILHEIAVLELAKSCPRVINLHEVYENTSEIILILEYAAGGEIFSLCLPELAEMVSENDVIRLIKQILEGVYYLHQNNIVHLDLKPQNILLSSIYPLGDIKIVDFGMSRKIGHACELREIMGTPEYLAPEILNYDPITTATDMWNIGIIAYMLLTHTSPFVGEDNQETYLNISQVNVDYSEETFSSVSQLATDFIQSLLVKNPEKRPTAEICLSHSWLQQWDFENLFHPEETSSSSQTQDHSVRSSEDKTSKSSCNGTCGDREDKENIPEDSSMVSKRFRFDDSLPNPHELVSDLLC
Chain of UniProt P07949 (whole entry, unmodified, looked up): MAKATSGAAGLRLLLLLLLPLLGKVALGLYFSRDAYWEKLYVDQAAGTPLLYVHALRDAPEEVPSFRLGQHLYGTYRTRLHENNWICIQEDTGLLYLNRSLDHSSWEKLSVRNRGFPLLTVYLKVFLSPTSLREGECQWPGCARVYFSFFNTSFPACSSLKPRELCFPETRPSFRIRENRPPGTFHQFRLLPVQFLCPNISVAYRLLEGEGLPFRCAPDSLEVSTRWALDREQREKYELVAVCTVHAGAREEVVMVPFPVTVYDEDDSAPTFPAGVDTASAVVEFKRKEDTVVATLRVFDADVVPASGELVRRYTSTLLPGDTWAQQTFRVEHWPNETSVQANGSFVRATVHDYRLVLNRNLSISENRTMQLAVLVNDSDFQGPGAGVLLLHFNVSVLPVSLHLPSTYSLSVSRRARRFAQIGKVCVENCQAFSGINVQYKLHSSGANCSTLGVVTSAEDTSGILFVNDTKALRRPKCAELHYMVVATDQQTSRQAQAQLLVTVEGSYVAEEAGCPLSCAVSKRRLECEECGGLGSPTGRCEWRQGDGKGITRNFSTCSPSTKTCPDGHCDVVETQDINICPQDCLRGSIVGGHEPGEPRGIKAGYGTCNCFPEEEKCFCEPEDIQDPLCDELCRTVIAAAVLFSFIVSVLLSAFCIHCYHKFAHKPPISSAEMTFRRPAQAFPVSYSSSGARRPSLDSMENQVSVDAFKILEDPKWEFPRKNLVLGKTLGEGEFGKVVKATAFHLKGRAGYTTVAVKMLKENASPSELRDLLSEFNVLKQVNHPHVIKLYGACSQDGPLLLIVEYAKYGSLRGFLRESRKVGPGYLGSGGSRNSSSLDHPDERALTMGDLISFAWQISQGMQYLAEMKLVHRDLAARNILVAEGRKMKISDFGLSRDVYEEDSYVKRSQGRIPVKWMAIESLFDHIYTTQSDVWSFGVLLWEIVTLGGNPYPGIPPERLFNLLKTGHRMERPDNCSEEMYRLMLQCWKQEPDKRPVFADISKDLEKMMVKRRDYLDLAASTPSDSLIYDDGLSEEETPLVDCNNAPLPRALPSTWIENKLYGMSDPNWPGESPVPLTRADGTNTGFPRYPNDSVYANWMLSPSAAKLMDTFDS
Chain of UniProt P54756 (whole entry, looked up): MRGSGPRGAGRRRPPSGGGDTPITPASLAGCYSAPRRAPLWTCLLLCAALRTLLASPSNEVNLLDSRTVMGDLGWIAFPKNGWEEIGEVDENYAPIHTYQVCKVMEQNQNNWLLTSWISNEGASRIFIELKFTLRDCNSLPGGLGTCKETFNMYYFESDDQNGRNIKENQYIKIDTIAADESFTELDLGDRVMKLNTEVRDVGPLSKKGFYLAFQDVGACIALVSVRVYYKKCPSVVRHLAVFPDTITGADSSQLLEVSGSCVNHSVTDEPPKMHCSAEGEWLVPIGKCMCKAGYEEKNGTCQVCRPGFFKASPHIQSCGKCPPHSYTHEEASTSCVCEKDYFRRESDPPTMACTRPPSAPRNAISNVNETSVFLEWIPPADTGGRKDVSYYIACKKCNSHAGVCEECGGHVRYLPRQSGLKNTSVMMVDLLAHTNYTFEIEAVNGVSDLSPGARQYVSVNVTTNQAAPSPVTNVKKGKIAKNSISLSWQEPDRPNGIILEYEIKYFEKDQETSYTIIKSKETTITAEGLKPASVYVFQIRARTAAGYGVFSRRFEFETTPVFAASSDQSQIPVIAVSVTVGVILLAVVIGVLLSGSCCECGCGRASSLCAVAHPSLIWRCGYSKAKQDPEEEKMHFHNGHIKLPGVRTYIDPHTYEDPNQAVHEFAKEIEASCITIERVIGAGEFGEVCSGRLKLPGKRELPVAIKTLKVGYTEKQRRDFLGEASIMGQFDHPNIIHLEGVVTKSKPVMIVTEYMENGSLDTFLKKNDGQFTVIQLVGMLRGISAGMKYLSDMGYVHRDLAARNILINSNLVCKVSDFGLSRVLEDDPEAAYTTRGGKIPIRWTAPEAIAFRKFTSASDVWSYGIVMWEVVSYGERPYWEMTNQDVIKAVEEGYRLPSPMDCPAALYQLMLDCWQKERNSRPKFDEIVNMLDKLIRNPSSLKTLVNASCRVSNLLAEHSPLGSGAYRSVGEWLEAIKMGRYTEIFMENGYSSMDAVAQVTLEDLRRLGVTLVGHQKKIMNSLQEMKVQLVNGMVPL
Chain of UniProt Q8TDR2 (whole entry, looked up): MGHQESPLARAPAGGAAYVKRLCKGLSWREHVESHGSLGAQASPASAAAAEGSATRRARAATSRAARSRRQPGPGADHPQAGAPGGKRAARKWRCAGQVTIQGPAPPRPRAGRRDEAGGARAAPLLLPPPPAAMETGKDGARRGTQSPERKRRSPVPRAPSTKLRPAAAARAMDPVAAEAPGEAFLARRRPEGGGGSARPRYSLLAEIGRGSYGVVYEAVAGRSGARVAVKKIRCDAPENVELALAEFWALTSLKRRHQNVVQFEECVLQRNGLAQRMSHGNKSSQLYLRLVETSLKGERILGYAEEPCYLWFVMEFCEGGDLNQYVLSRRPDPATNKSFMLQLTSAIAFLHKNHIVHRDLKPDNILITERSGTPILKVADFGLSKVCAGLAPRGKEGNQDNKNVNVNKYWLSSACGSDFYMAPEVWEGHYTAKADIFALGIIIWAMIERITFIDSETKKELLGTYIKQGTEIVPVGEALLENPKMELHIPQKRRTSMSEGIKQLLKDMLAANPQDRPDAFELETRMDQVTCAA
Chain of UniProt Q09013 (whole entry, looked up): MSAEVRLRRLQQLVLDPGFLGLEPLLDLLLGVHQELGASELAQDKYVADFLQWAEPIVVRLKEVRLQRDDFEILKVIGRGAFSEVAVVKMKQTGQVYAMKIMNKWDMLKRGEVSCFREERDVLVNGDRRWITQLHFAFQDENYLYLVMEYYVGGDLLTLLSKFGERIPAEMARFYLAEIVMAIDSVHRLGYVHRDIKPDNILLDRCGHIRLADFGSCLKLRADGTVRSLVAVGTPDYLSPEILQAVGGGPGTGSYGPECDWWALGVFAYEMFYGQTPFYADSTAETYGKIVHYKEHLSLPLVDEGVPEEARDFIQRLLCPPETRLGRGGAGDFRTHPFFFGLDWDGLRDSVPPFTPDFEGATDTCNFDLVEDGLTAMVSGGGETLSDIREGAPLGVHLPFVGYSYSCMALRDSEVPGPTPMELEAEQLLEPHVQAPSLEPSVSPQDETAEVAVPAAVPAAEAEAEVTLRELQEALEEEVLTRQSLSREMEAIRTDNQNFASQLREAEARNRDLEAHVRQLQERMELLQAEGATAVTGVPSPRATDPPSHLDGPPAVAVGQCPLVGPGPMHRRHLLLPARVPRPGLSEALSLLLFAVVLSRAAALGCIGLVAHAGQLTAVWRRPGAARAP

Study 1
SMILES: CCS(=O)(=O)c1cc2cc(C[C@](O)(CC(C)(C)c3ccc(F)cc3C(N)=O)C(F)(F)F)[nH]c2cn1
Concentration: 1 µM
| target | test | remaining binding [%] |
| --- | --- | --- |
| SIK1 (Homo sapiens, UniProt P57059) | competition binding | 100 |
| DMPK (Homo sapiens, UniProt Q09013) | cell-free assay, competition with immobilised ligand | 99 |
| BMPR1B (Homo sapiens, UniProt O00238) | cell-free assay, competition with immobilised ligand | 100 |
| EPHA5 (Homo sapiens, UniProt P54756) | cell-free assay, competition with immobilised ligand | 100 |
| RET (Homo sapiens, UniProt P07949, M918T) | cell-free assay, competition with immobilised ligand | 100 |
| CDKL3 (Homo sapiens, UniProt Q8IVW4) | cell-free assay, competition with immobilised ligand | 100 |
| STK17B (Homo sapiens, UniProt O94768) | cell-free assay, competition with immobilised ligand | 74 |
| STK35 (Homo sapiens, UniProt Q8TDR2) | cell-free assay, competition with immobilised ligand | 100 |

Study 2
Species: mouse
Matrix: microsomes or S9
Concentration: 2 µM
Time: 0.5 h
| SMILES | remaining compound [%] |
| --- | --- |
| Cc1cc(NC(=O)C(C)c2ccc(Cl)s2)nc(=O)[nH]1 (stereo not shown) | > 100 |
| O=c1c2ccccc2nc(-c2ccco2)n1-c1nc2ccccc2s1 | 34.4 |
| Nc1ncnc2c1cnn2-c1nc2ccccc2s1 | 23.4 |
| O=C(Cn1ccc2c(=O)[nH]ccc21)Nc1ccccc1Br | 92.4 |
| COC(=O)c1cc(N)c2c(c1)Oc1ccccc1O2 | 0 |
| Cc1c(CC(=O)O)c2c(n1-c1ccc(Br)cc1)CC(C)(C)CC2=O | 70.3 |
| CC(C)(C)c1ccc(O)c(NC(=O)c2cc(Br)c[nH]2)c1 | 9.2 |
| COc1c(C)cnc(CN2CCC(NC(=O)OC(C)(C)C)CC2)c1C | 17.2 |

Study 3
Target: RAF proto-oncogene serine/threonine-protein kinase (RAF1, Homo sapiens, UniProt P04049)
Chain of UniProt P04049 (whole entry, looked up): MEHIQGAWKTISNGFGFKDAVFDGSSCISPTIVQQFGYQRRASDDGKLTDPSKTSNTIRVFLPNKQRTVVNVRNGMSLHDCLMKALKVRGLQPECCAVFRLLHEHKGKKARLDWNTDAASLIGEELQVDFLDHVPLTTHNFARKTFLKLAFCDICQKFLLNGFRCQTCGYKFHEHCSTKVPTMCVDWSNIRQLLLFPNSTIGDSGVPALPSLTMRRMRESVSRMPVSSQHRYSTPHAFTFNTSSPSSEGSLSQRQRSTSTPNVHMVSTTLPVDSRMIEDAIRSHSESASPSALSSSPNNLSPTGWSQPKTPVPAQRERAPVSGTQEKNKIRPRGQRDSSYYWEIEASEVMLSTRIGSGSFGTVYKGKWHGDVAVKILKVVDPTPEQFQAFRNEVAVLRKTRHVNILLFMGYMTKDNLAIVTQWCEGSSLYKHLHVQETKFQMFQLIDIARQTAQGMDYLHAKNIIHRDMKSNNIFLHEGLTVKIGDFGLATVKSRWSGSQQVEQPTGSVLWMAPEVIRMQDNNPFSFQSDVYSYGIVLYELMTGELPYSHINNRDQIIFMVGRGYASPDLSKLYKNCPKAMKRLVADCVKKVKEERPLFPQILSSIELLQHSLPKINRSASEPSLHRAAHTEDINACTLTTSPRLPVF
Observed: enzyme activity
Action: inhibitor
Concentration: 0.5 µM
Reference: control
| Structure (SMILES) | remaining activity [%] |
| --- | --- |
| O=C(CCCc1ccc(-c2ccccc2F)cc1)Nc1ccc(O)cc1 | 102 |
| COc1cc2nccc(Oc3ccc(NC(=S)NC(=O)c4ccccc4C)cc3)c2cc1OC | 97 |
| CN(C)c1ccc(C=C2C(=O)Nc3ccccc32)cc1 | 101 |
| Nc1ncnc2n[nH]c(Nc3ccc(F)cc3)c12 | 96.7 |
| Cc1ccc(Nc2nccc(N(C)c3ccc4c(C)n(C)nc4c3)n2)cc1S(N)(=O)=O | 9.43 |
| O=C(Nc1cccc(Nc2cc(Nc3cccc(C(F)(F)F)c3)ncn2)c1)C1CC1 | 98.4 |
| OCC(O)CCON=C1C(c2c(O)[nH]c3ccccc23)=Nc2ccccc21 (stereo not shown) | 100 |
| COc1cc2ncnc(Nc3ccc(Oc4ccccc4)cc3)c2cc1OC | 88.9 |
| Cc1ccc(NC(=O)c2ccc(CN3CCN(C)CC3)cc2)cc1Nc1nc(-c2cccnc2)cs1 | 77.5 |
| Cc1cccc(-c2[nH]c(C(C)(C)C)nc2-c2ccc3c(c2)OCO3)n1 | 86.2 |
| O=C(O)c1ccc2c3c1cccc3c(=O)n1c3ccccc3nc21 | 97.5 |
| O=S(=O)(c1cccc2cnccc12)N1CCCNCC1 | 98.3 |
| Oc1ccc(-c2nc(-c3ccncc3)c(-c3ccc(F)cc3)[nH]2)cc1 | 25.8 |
| CCOC(=O)c1c(C)[nH]c(/C=C2\C(=O)Nc3ccccc32)c1C | 89.6 |
| Cn1c2ccccc2c2c3c(c4c5ccccc5n(CCC#N)c4c21)CNC3=O | 111 |
| CNC(=O)c1cc(Oc2ccc(NC(=O)Nc3ccc(Cl)c(C(F)(F)F)c3)cc2)ccn1 | 1.35 |

Study 4
Cell line: HaCaT
Concentration: 100 µM
Time: 36 h
| Structure (SMILES) | viability |
| --- | --- |
| CCOC(=O)C1=C(C)NC(C)=C(C(=O)OCC)C1c1ccccc1/C=C/C(=O)OC(C)(C)C | 8.58% |
| Cc1[nH]cnc1CN1CCc2c(c3ccccc3n2C)C1=O | 49.6% |
| NC(=O)Cc1cccc(C(=O)c2ccccc2)c1N | 83.4% |
| CC(C)(C)c1nc(-c2cccc(NS(=O)(=O)c3c(F)cccc3F)c2F)c(-c2ccnc(N)n2)s1 | 56.8% |
| Cc1cc2nc3c(=O)[nH]c(=O)nc-3n(C[C@H](O)[C@H](O)[C@H](O)COP(=O)(O)O)c2cc1C | 136% |
| N=C1CCCN1Cc1[nH]c(=O)[nH]c(=O)c1Cl | 80.6% |
| C[C@]12CC[C@@H]3c4ccc(O)cc4CC[C@H]3[C@@H]1CC[C@@H]2O | 70.4% |
| Nc1ccc(S(=O)(=O)Nc2ncccn2)cc1 | 60.1% |
